Assay results of several laboratories.
Numbered parts are unrelated; each lists some results of a single study.

Set 1
Target: RNA binding protein fox-1 homolog 2, RRM domain, GST-SBP tag (RBFOX2, Homo sapiens, UniProt O43251-10, residues 100-194)
Technique: RNA Bind-n-Seq
Form: RNA
Matrix: in vitro
Tested at: 365 nM
Notes: natural RNA segment, single round, ends assumed
Relative to: no-protein control
Reading: higher = stronger binding
Residues (chain): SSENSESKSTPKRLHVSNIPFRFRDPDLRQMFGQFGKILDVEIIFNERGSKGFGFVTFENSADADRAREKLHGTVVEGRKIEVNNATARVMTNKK
| Oligonucleotide | RBNS enrichment (R) |
| --- | --- |
| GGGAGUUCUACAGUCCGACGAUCCUAGUCUCUGAUUUUUGAGUCUGGCGGAGGCCUCUUGACCAUGCUGCCCAUGCUGUCUACUGUGCCUCCUUAUGAGGGCAUCAUGUUGGUCUCUGUUGUGCUUACUGCAGUGGAAUUCUCGGGUGCCAA | 0.261 |
| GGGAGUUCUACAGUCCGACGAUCGUGAUGCAAAUUGUGUGCCCUCUGGUUCAGCUGAAACAGUCCUGGACUUUCAAAAACCUUGAAUAAGUCUCCCACAGUUGUAUAAAUUGGACAAUUUAGGAAUUUUAAACUGGAAUUCUCGGGUGCCAA | 0.645 |
| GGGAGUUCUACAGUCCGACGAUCUUUUAUGUUUACAGGGCACGUCUGUUGUAAUGCAAAGCAUAUUUGGCAAGCAGUUCAUCACCAGGACACUAGCUAUGAUUCUAGAAGUCAAAAGGUGUCUAUAGAACUAGUGGAAUUCUCGGGUGCCAA | 0.378 |
| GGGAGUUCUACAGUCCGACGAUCAAGAGAGAGAGACCUUUAUCCCGUAACUGAGACCUUGGUUGAGGACUGGCAAUUUUAUAGAGGGUUGGUUUAGUUCUUUGCUUUUUCAACAGGAAAUAACACUUCAGGAGUGGAAUUCUCGGGUGCCAA | 0.534 |
| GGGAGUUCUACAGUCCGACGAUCCUAACUUGGAUUGAAAUGAGUGAGGCCAACUCACAUUCCCAUCAAACACUCUUCCAAGGAAAAGCAGAAGUAAUAAUUGGAGGUAAAGUUUCCUUAGAGAAAAUAAUUUUUGGAAUUCUCGGGUGCCAA | 0.195 |
| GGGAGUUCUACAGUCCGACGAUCUUAGACAAAUACAGCCCACUUUGGAUUUCAUCCUAGUGAACAGACUAAAACUUUGCAGUAAAAUACCUAUUUCUACAAAGCAAGGUUUGCCUGCCUCGGUUGGGGAAACCUGGAAUUCUCGGGUGCCAA | 0.229 |
| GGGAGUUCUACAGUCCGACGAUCGCCUGCCCUUUCCUGUCCCUCCCUCGAAUUCUCUCUCCCCGUAAGUGAUGCUGGAAAAGUCAUAGGACUGGCAAAGCAACUGUUUAAACCCUUUGUAACCGGGGCCUUGCUGGAAUUCUCGGGUGCCAA | 2.84 |
| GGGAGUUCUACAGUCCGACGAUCCCUGUACCCUGGUGUAGCUUUUGUGUUGAAGACACUCUUGGGUGUGCACCCUAUUCAGGUCAGGGACACUGCCACCUCAUGGUCUGAUUCAGGGGCAUUUUUUUUUUUAGUGGAAUUCUCGGGUGCCAA | 0.619 |
| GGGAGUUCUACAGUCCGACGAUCUUUUGCAGAAAUAAGUGUUUGUAAGAAGUUUUACUAUAGGAAAGUCUACUUUUUUAAGCAGCAAAGUGUUCUGAGGAGUUGGUGUGUGAUGCCAAAGAGCUCAACGGGGCUGGAAUUCUCGGGUGCCAA | 0.83 |

Set 2
Target: PABPC1L2, full length, GST fusion (mouse, UniProt A0ABA7IW68)
Technique: RNAcompete
Form: RNA
Matrix: in vitro
Tested at: 20 nM
Notes: 7-mer, probes averaged, single round
Relative to: mean of 7-mers
Reading: higher = stronger binding
Construct (chain): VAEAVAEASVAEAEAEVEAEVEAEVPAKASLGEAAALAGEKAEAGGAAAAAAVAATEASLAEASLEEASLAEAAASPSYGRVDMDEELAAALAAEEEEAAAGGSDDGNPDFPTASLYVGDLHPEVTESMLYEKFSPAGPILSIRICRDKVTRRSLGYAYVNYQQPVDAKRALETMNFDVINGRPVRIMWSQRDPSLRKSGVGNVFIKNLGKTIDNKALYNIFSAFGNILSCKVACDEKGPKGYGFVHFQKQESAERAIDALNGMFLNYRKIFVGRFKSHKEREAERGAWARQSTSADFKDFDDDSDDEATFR
| Oligonucleotide | 7-mer Z-score |
| --- | --- |
| UCGGCAU | -0.0917 |
| UAUAUAG | -0.05 |
| GUUCGAA | -0.104 |
| UAGGACC | 0.0497 |
| GCGCAGA | 0.124 |
| AGCUUUA | -0.144 |
| CCGAAUC | -0.271 |
| GAGGCGA | 0.273 |
| CGACUAA | 0.046 |
| GCUCACG | -0.322 |
| AUCCAUC | -0.248 |
| AAGAGCU | 0.613 |
| AGCAAGU | -0.128 |
| GCGCUAC | 0.00254 |
| GACACCC | -0.327 |
| UGGAGCC | -0.26 |
| GCGACUG | 0.0315 |
| AACGUAA | 0.209 |
| AUCUCAC | -0.144 |
| UUGAGCC | -0.318 |
| GGACGUG | 0.186 |
| GGCUCGA | -0.0808 |
| UUCUUCC | -0.376 |
| UCGCAUG | -0.171 |
| CCUGUGG | -0.3 |

Set 3
Target: RING finger protein unkempt homolog, zinc fingers 1-6, SBP tag (UNK, Homo sapiens, UniProt Q9C0B0, residues 30-357)
Chain of UniProt Q9C0B0 (30-357, looked up): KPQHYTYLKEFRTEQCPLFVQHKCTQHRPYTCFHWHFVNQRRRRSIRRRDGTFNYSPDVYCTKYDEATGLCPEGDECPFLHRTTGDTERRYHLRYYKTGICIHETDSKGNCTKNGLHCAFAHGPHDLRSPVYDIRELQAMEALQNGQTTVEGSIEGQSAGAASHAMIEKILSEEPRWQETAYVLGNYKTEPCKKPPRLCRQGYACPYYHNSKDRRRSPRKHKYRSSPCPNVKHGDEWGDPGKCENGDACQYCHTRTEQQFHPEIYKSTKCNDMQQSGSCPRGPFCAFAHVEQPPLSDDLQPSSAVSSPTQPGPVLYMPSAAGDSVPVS
Technique: RNA Bind-n-Seq
Form: RNA
Matrix: in vitro
Tested at: 100 nM
Notes: RNA with constant flanks, vertebrate orthologous sites, ends assumed
Relative to: input RNA pool
Reading: higher = stronger binding
| Oligonucleotide | bound/input enrichment [ratio] |
| --- | --- |
| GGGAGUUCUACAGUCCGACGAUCUUAAAGCCAUUUUUUCAUGUUUCCUGUAAAUAAUGGAUAAUCAUUUUUUAUUUUAUUUUUAAGUGCUGUUUUAACAAUGUGGAUAGACCAUAAAUGUACUUGCUAAAAUCAUUCCUUUUUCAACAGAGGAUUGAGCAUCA | 0.762 |
| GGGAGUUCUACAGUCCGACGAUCCUCUAUGGGCCUCGCAGAGUUGAAAUAAUGGAAGAGGAAAGUGAACAGUAAUCUUCAUUUUAGUAUUUAUGUUUAGGUGUGAAAUAAAUGUUAUUUGUUGAUCAUUUCUAUAAUCCAGAGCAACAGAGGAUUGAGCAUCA | 0.868 |
| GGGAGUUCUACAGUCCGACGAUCUCUUGGAUGACUUUGGACGUCCGUACUGCUUAGGUGCGGUGACUUCGUUCGGCCUUGCAGACUUGUUCUCGUCUCAGCCCAAGGCCUCUCCCGCAACCAUGCUCCGCCUGAUCGUCAGUCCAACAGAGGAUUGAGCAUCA | 0.381 |
| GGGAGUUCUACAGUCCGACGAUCUAGUACUUAAGCCAACAACAGUUCUAAAAUGCUAUUUAUUUGUGUCUGUAAGAUUGUACAUAUACUACCAACCUCAUACUGUUGUGGAUUAUUUUCUCACAAAUUUGGGUUUGUUUUUUUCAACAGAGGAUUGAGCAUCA | 0.482 |
| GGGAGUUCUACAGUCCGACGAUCUUCAGUGUCCCUCCCGCGGUGACAUCCGUACUGUCCCCGGCCAGGGCUGAGGACCUGCAUUAGAAACAUUUUUUAAAUUGUCGUACAGGAAGAGAUGUGUCUAACACAGCAUCUCAAAGCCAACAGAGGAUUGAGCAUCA | 0.698 |
| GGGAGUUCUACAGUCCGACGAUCCUCCACUCCCCCUGGGUGCCUGACUCCAGUGAAGCACUCACCAGUGCUGCAAGGGGUCCAGAGUAUUUUUUUGCUGCUUCAGUCCCCAAUGCCUUCCAGCAGAAGUGGCAGUAGACUGUUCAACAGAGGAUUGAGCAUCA | 0.358 |
| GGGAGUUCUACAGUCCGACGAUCGCACAUGCCGCUAUGACCGAAAUCUGGCUGCCGUAUUUCAAAUUUCAUUCAGAGUCGUUCUAGUGUUUCCUAUUCCCUACCCUUCCUAUGACUCUCAGUGAUGAAGUAUCUUAAGUUUUCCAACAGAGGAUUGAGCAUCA | 0.924 |
| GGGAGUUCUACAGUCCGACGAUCUGUACUUGGAAAAAAAUCAUCUUUAGUUUUAAACUAGUCAUGGUGAUACCUAUUCUGUGCUAGUGGAAUCAUUUGCUCUUACCUUUUAAACUAUCUCCUCUGUCUGAUAUCUGAAACCAGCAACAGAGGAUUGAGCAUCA | 0.664 |

Set 4
Target: Centromere-binding protein 1, full length, N-terminal tag (CBF1, Saccharomyces cerevisiae, UniProt P17106, residues 1-351)
Chain of UniProt P17106 (whole entry, looked up): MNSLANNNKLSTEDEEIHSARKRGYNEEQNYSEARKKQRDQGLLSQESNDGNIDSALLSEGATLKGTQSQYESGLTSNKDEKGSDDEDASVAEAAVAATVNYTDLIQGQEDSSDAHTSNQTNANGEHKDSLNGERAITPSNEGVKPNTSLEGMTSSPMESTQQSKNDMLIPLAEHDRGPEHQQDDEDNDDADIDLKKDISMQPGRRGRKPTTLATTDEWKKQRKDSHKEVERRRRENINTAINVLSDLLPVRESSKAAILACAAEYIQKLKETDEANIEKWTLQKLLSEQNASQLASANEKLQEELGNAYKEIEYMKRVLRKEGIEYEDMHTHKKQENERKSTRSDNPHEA
Technique: protein-binding microarray
Form: double-stranded DNA, one strand shown
Matrix: in vitro
Tested at: 0.8 µM
Notes: whole 60-bp probe, no competitor
Reading: higher = stronger binding
| Oligonucleotide | fluorescence intensity [a.u.] |
| --- | --- |
| GAAAACATCACGATGCACGAGCACTGTTTCCAATAGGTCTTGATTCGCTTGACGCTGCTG | 756 |
| GAAGGAAATCAGTTGCATGTGCCCAAGGAATGGTAGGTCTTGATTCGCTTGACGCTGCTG | 1050 |
| GAACTTTTGGGTTATCACGTTCAACAAGGAACTTAGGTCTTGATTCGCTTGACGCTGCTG | 922 |
| TGTACGAAGCTATCGTGGGTGACTATAGTAGTTAGGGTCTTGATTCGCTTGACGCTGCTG | 508 |
| GAAGCAGTAATTGTGCACATGCAGTTTTTGTTTTAGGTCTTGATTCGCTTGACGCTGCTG | 769 |
| GAACCTAAAAATGTTCACGTGTGACTGCTCCATTAGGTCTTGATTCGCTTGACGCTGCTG | 3810 |
| GAAGCGATTGACAATGACGTCATCAGTGCATAGTAGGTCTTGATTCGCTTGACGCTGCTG | 519 |
| CCTAACTACTATAATCACATGATATAGCTTCGTACAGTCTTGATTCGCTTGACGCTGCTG | 3450 |
| GAAATGTGAACACGTCATCATAGACGGTTGTTGTAGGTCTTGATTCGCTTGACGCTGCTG | 590 |
| GAATCACATGATATACGCGTGACTTTTTTTTTATAGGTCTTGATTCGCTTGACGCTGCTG | 4860 |
| GAAAAGTGGGGTGCTCAGCTGATTTGCATCTTTTAGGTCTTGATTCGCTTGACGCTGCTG | 714 |
| CTAATTAGAAATAGCGACATCATGACCAGCTTATTCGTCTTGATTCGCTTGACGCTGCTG | 648 |
| GAACCGAGAACGCGTAGCGTGATGATAATGGTGTAGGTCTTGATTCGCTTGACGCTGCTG | 629 |
| CTAGCATCAATATATGGTGTGACCAGATTGGACTTCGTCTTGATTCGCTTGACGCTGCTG | 745 |
| GAATGGCTTCCCGATCACGTGCTACAACCTCATTAGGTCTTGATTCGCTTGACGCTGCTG | 18500 |
| CTAAGGCTTTGCATACACGTGACTTATATTTGGTTCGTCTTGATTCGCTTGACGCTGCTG | 17500 |
| CTACCTTAAATCGTGAACGTGGAGATGATTATTTTCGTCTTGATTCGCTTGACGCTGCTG | 582 |
| GAATTTATCATTTTCCTGATGACCTTTGACTGCTAGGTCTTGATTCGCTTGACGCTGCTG | 538 |
| GAATTCGTCATCAGTCATCTGACGTACGGCTTTTAGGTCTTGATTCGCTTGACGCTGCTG | 1090 |
| CCTAACTACTATAGGAATGACACATAGCTTCGTACAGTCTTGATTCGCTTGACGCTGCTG | 529 |
| TGTACGAAGCTATGTCACCACGATATAGTAGTTAGGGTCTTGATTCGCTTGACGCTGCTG | 549 |
| GAATTGTGTGGAACTGACGTGGACCTTTTCTGTTAGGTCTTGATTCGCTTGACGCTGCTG | 521 |
| TGTACGAAGCTATGTGACTACAATATAGTAGTTAGGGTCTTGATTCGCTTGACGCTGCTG | 550 |
| CTATCAAGAAGCCCGCATGTGCTACTTACGTTTTTCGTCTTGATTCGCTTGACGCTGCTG | 545 |
| GAATGATTCCTTAATGTGATGATGCAGGATTAGTAGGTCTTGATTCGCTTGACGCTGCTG | 587 |
